Experimental data collected from several papers.
Each line is one published result; not all experiments were run side by side. Several values in a cell are separate wells, animals, samples, runs or records. ± marks the error that the study gave.

SMILES = O=C(N/N=C/c1cc[n+](CC2CC2)c2ccccc12)c1cc(C(=O)N/N=C/c2cc[n+](CC3CC3)c3ccccc23)ncn1; target or system = 22CTA telomeric G4-DNA antiparallel; test = FRET melting; setting = 1 µM, K10 buffer, DNA 0.2 µM; quantity = ΔTm; result = 10.5 ± 1.7 °C
SMILES = CC(C)Oc1cc(Cl)ccc1CNc1cc(-c2ccccc2)nc2ncnn12; target or system = endogenous β-adrenergic receptors; test = cAMP level, cAMP GloSensor; test system = mock-transfected cells; setting = 100 nM, with: isoprenaline 30 nM; how to read = higher = more cAMP; quantity = cAMP luminescence; result = 29800 a.u. and 23600 a.u. and 23000 a.u.
SMILES = c1ccc(-c2n[nH]cc2-c2ccnc3ccccc23)nc1; target or system = KSP1 (Candida albicans); test = kinase binding, MIB/MS competition; test system = Candida albicans lysate; setting = 1 µM; how to read = relative to: DMSO; quantity = log2 fold change; result = 0.06
SMILES = O=c1c(Oc2ccccc2)c(C(F)(F)F)oc2c(O)c(O)ccc12; target or system = ROC1-CUL1 E3 subcomplex; test = di-ubiquitin synthesis; setting = 100 µM; how to read = relative to: input; quantity = di-ubiquitin formed; result = 28%
SMILES = N#Cc1cccc(-c2ccc([C@H]3[C@@H](F)[C@@H](F)C[C@@H](F)[C@H]3F)cc2)c1; test = liver microsome stability; test system = human liver microsomes; setting = 1 µM, without NADPH; quantity = hepatic clearance; result = 3.9 mL/min/kg
SMILES = O=C(N/N=C/c1ccc2c(ccc[n+]2Cc2ccccc2)c1)c1cccc(C(=O)N/N=C/c2ccc3c(ccc[n+]3Cc3ccccc3)c2)c1; target or system = 22CTA telomeric G4-DNA antiparallel; test = FRET melting; setting = 1 µM, K10 buffer, DNA 0.2 µM; quantity = ΔTm; result = 14 ± 0.2 °C
SMILES = Nc1ncc(-c2cc(-c3cnn(CC(F)(F)F)c3)ncc2F)nc1C(=O)NC1CNCC(F)C1 (stereo not drawn); target or system = TLK1; test = KINOMEscan; setting = 1 µM; how to read = relative to: DMSO control; quantity = remaining binding; result = 56%
SMILES = C=CC(=O)N1[C@H](c2ccc3c(c2)OCO3)c2[nH]c3ccccc3c2C[C@@H]1C(=O)N1CCN(C)CC1; target or system = human cyclin E1 N112C-3xFLAG:CDK2; test = co-IP with TMT proteomics, refers to: ELP5; setting = concentration not given, Q8TE02; how to read = relative to: wild type DMSO; quantity = relative co-enrichment; result = 80%
SMILES = OC[C@H]1O[C@@H]2O[C@H]3[C@H](O)[C@@H](O)[C@@H](O[C@H]4[C@H](O)[C@@H](O)[C@@H](O[C@H]5[C@H](O)[C@@H](O)[C@@H](O[C@H]6[C@H](O)[C@@H](O)[C@@H](O[C@H]7[C@H](O)[C@@H](O)[C@@H](O[C@H]1[C@H](O)[C@H]2O)O[C@@H]7CO)O[C@@H]6CO)O[C@@H]5CO)O[C@@H]4CO)O[C@@H]3CO; target or system = LuxR; test = Escherichia coli sensor; setting = 40 µM; how to read = higher = stronger induction; quantity = bioluminescence induction; result = 870 ± 97 RLU
SMILES = C[n+]1cc(/C=N/NC(=O)c2ccc3ccc4ccc(C(=O)N/N=C/c5cc6ccccc6[n+](C)c5)nc4c3n2)cc2ccccc21; target or system = 22CTA telomeric G4-DNA antiparallel; test = FRET melting; setting = 1 µM, K10 buffer, DNA 0.2 µM, with: ds26 10 µM; quantity = ΔTm; result = 11.6 ± 0.6 °C
SMILES = O=C(Nc1ccc([C@H]2[C@@H](F)[C@@H](F)C[C@@H](F)[C@H]2F)cc1)C1(N2CCOCC2)CC1; test = liver microsome stability; test system = human liver microsomes; setting = 1 µM, without NADPH; quantity = hepatic clearance; result = 3.9 mL/min/kg
SMILES = C=CC(=O)Nc1cccc(Cn2ncc3cnc(Nc4cnn(CCOC)c4)nc32)c1; target or system = PIK3CB human; test = binding, KINOMEscan; setting = 100 nM; how to read = lower = stronger binding; quantity = percent of control; result = 100%
